Published values from different studies.
Compare with care: the assays were run in different laboratories. ± gives the spread as reported.
Histone acetyltransferase RTT109 with Vps75: Histone acetyltransferase RTT109, with Vps75 (Saccharomyces cerevisiae, UniProt Q07794)
Sequence of UniProt Q07794 (whole entry, looked up): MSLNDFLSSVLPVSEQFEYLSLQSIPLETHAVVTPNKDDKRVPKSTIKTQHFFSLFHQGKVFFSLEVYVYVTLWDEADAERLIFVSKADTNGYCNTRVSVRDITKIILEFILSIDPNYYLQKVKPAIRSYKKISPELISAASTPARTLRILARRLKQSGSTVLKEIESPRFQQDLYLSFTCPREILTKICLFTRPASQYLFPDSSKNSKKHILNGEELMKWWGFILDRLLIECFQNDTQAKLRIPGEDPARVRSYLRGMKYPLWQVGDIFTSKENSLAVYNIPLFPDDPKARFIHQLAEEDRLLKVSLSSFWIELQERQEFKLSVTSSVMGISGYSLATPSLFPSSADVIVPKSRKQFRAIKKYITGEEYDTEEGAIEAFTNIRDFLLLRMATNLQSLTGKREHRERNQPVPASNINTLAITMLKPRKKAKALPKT
UCHL1: Ubiquitin carboxyl-terminal hydrolase isozyme L1 (UCHL1, Homo sapiens, UniProt P09936)
Sequence of UniProt P09936 (whole entry, looked up): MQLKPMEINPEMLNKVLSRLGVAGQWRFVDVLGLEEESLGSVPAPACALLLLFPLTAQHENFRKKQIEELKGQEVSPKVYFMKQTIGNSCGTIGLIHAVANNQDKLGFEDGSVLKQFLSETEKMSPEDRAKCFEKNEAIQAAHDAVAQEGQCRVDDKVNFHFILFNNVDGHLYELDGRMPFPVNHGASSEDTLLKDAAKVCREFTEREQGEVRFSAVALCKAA
Sequence of UniProt P51575 (whole entry, unmodified, looked up): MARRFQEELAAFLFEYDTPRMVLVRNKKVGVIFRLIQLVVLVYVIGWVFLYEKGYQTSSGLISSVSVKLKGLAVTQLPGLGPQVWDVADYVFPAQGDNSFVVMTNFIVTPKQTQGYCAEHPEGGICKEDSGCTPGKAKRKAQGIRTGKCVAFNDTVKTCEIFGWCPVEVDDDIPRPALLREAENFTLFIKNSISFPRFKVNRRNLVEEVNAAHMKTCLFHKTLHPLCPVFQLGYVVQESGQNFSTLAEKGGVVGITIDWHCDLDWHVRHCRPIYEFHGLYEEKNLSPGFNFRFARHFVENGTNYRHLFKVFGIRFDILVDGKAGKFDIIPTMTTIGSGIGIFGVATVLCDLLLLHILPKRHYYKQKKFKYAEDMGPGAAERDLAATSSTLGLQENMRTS
Sequence of UniProt O00506 (whole entry, looked up): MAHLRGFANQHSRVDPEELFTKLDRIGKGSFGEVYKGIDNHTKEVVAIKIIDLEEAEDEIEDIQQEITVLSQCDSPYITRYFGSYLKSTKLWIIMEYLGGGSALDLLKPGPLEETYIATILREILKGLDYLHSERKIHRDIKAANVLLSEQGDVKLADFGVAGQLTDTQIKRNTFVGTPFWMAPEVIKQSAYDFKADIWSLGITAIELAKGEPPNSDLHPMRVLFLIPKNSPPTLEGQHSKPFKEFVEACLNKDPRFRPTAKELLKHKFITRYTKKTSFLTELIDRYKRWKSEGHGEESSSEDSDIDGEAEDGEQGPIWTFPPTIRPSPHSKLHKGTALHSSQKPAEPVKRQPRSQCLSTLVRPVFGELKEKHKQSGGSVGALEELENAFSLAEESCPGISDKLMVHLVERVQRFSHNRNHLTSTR

Compound	target or system	assay	system	setting	scale	measurement	result
O=C(C1CCCN(Cc2ccc(Cl)cc2)C1)N1CCCCC1.O=C(O)C(=O)O (stereo not drawn)	Trypanosoma cruzi	reporter translation, Renilla luciferase mRNA translation	cell-free extract	40 µM	relative to: DMSO	inhibition	-4%
C=CC(=O)N1CCC(COCC(=O)N2CCN(c3nc(-c4cnc(N)nc4C(F)F)nc(N4CCOC[C@@H]4C)n3)CC2)CC1	Serine/threonine-protein kinase 25 (STK25, Homo sapiens, UniProt O00506)	KINOMEscan	–	1 µM	–	remaining binding	100%
CC(=O)OC[C@H]1O[C@@H]([S-])[C@H](OC(C)=O)[C@@H](OC(C)=O)[C@@H]1OC(C)=O.CCP(CC)CC.[Au+]	Toxoplasma gondii	parasite growth, luciferase reporter	HFF, tachyzoite	72 h	–	EC90	6.12 µM
O=S(=O)(c1ccc2nsnc2c1)N1CCOCC1	Histone acetyltransferase RTT109 with Vps75	enzyme activity, inhibitor, HTS, CPM-based, dose response	–	–	–	IC50	> 125 µM
Cc1ccc(NC(=O)N2CCN(C(=O)C(C)Cl)CC2)cc1Cl (stereo not drawn)	UCHL1	covalent, intact protein LC-MS	–	12.5 µM	–	labelling	13.3%
CC(C)c1ccc(S(=O)(=O)Nc2ccc(O)c(Cl)c2)cc1	Histone acetyltransferase RTT109 with Vps75	enzyme activity, inhibitor, HTS, CPM-based, dose response	–	–	–	IC50	> 125 µM
CCC(C)n1ncn(-c2ccc(N3CCN(c4ccc(OCC5COC(Cn6cncn6)(c6ccc(Cl)cc6Cl)O5)cc4)CC3)cc2)c1=O (stereo not drawn)	Trypanosoma cruzi	reporter translation, Renilla luciferase mRNA translation	cell-free extract	40 µM	relative to: DMSO	inhibition	-0.08%
CC(C)C[C@H](NC(=O)C[C@H](O)[C@H](CC(C)C)NC(=O)[C@H](Cc1c[nH]cn1)NC(=O)CNC(=O)[C@@H](NC(=O)[C@H](C)NC(=O)[C@H](Cc1c[nH]c2ccccc12)NC(=O)[C@H](CCC(N)=O)NC(=O)[C@@H](Cc1ccccc1)NC(=O)COCCOCCNC(=O)CCC(C(=O)O)N1CCN(CC(=O)O)CCN(CC(=O)O)CCN(CC(=O)O)CC1)C(C)C)C(N)=O (stereo partly drawn) [lutetium-177 labelled]	–	–	BALB/c nu/nu mice, stomach	intravenous, 500 pmol, 1 h, together with: PA 300 µg	–	tissue uptake	0.6 ± 0.3 %ID/g
COc1ccc(C=C(C#N)C(=O)Nc2ccc3c(c2)OCCO3)cc1O	UCHL1	covalent, intact protein LC-MS	–	12.5 µM	–	labelling	13.5%
CN1C=C/C(=C\c2cc[n+](C)c3ccccc23)c2ccccc21	Trypanosoma cruzi	reporter translation, Renilla luciferase mRNA translation	cell-free extract	40 µM	relative to: DMSO	inhibition	5.9%
COc1cc(C=O)cc(Cl)c1OS(=O)(=O)c1ccccc1	UCHL1	covalent, intact protein LC-MS	–	12.5 µM	–	labelling	12.9%
Nc1ncnc2c1ncn2[C@@H]1O[C@H](COP(=O)(O)CP(=O)(O)OP(=O)(O)O)[C@@H](O)[C@H]1O	P2X purinoceptor 1 (P2RX1, Homo sapiens, UniProt P51575, K136W)	saturation binding	HEK293	130 nM	–	specific binding	4910 CCPM

A few entries again:
Compound	target or system	assay	system	setting	scale	measurement	result
C=CC(=O)N1CCC(COCC(=O)N2CCN(c3nc(-c4cnc(N)nc4C(F)F)nc(N4CCOC[C@@H]4C)n3)CC2)CC1	Serine/threonine-protein kinase 25 (STK25, Homo sapiens, UniProt O00506)	KINOMEscan	–	1 µM	–	remaining binding	100%
